Measurements pooled from the literature.
Protocols differ between the studies behind these lines. Several values in a cell are separate wells, animals, samples, runs or records. ± marks the error that the study gave.
dcp2 with Dcp1: mRNA decapping complex subunit 2, with Dcp1 (dcp2, Schizosaccharomyces pombe, UniProt O13828)
Chain of UniProt O13828 (whole entry, looked up): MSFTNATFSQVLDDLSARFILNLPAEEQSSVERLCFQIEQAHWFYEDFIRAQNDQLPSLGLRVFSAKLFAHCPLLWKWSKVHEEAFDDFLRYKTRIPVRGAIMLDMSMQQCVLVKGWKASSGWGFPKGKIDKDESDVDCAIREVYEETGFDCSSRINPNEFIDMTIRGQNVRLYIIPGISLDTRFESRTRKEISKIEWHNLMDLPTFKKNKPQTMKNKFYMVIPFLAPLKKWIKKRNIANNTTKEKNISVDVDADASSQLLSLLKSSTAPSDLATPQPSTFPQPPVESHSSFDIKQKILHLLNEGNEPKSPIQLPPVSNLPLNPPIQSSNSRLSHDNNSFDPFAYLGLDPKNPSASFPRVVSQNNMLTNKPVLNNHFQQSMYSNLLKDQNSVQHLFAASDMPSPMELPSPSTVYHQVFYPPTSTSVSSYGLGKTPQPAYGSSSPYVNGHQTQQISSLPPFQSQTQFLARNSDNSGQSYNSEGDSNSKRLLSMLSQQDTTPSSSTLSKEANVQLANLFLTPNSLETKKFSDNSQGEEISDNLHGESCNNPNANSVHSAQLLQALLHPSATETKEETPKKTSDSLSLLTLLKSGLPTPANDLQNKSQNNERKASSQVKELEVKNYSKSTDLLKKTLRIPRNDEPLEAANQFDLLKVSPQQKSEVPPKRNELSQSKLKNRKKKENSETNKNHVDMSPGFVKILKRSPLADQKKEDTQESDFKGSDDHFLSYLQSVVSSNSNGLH
ache: Acetylcholinesterase (ache, Electrophorus electricus, UniProt O42275)
Chain of UniProt O42275 (whole entry, looked up): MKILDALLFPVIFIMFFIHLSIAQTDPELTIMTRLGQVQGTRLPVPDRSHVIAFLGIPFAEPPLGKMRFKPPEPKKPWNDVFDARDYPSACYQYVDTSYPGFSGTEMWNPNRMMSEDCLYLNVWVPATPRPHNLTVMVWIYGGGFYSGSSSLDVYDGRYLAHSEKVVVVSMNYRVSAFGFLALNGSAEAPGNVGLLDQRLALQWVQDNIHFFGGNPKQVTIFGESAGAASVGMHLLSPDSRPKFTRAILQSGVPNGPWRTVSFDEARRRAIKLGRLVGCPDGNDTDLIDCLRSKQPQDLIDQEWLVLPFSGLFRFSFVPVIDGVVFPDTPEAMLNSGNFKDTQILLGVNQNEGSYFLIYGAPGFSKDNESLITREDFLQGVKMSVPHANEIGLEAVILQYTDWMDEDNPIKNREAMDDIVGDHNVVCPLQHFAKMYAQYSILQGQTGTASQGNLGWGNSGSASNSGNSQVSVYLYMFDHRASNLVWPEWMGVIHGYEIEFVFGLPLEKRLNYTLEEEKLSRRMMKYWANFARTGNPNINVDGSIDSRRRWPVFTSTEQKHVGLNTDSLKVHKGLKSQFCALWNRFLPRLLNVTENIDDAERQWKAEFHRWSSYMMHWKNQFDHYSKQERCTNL
Chain of UniProt Q13224 (whole entry, looked up): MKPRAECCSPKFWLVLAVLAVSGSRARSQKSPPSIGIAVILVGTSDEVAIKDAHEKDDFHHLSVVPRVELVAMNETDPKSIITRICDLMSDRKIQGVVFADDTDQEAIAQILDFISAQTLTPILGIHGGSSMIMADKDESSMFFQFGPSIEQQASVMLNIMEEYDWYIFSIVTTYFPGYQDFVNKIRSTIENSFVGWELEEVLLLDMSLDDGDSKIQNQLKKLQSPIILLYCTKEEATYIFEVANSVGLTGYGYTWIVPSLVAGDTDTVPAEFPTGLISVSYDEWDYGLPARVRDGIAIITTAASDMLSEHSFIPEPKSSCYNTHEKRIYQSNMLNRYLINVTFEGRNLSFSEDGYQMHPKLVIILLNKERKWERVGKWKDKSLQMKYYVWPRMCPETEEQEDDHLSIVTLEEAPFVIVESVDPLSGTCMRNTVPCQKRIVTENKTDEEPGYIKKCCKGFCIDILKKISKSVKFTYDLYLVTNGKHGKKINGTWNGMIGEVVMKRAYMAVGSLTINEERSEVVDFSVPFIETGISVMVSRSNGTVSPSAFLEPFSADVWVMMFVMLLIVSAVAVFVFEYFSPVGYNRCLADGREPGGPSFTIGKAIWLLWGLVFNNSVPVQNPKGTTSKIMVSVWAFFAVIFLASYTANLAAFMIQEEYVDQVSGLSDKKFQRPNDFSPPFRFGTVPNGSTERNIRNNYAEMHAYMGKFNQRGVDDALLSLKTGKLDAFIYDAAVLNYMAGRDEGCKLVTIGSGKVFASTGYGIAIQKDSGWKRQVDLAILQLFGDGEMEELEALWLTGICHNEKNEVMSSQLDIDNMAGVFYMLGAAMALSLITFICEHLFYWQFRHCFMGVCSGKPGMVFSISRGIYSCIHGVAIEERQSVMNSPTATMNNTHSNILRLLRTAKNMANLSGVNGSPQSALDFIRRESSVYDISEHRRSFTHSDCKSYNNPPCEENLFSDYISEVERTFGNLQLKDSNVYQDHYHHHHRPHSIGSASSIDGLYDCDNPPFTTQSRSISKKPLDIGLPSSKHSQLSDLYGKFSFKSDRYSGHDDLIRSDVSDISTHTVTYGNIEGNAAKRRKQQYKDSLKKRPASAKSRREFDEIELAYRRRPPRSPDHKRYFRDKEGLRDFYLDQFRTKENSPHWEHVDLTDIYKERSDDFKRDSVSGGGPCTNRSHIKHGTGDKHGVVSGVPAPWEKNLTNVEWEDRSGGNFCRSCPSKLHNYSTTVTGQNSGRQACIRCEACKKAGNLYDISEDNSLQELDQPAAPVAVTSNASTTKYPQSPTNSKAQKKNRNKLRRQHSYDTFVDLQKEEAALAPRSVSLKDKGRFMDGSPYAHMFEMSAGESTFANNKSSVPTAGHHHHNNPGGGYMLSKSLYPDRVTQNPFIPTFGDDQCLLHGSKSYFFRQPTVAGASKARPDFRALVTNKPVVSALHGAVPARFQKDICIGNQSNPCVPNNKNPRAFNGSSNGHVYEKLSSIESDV
Chain of UniProt P51957 (whole entry, looked up): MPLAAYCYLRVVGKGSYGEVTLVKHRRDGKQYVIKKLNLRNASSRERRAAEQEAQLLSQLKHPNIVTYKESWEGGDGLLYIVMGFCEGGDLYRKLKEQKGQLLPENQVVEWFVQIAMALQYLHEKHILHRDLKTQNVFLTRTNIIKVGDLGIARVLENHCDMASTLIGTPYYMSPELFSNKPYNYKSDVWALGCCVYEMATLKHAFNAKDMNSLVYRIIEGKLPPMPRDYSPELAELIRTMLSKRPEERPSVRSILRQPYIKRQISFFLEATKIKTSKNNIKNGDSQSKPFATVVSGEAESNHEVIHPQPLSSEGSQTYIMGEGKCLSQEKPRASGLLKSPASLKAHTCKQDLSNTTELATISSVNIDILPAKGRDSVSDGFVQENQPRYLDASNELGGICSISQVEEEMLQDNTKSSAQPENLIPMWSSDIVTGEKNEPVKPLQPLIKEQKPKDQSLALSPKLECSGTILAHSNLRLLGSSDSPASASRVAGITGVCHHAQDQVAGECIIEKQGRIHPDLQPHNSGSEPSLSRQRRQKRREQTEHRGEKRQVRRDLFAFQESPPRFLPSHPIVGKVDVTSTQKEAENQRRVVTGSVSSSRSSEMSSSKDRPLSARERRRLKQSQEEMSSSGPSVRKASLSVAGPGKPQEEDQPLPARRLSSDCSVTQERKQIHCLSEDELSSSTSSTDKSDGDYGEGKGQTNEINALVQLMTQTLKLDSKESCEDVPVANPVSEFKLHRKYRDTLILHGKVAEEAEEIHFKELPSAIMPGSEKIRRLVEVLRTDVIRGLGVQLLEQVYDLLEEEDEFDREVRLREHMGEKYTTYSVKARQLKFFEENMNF
Chain of UniProt P00811 (whole entry, looked up): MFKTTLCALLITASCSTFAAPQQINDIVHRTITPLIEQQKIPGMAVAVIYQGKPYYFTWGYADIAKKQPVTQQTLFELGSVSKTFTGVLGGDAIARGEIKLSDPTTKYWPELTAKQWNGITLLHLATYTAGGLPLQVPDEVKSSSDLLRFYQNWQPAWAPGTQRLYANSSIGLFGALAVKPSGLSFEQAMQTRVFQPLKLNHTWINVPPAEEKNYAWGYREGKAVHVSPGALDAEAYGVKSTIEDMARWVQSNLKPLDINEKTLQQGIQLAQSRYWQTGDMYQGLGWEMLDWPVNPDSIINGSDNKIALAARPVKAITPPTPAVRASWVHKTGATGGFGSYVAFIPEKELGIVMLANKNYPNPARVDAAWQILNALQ
Chain of UniProt Q9NPD5 (whole entry, looked up): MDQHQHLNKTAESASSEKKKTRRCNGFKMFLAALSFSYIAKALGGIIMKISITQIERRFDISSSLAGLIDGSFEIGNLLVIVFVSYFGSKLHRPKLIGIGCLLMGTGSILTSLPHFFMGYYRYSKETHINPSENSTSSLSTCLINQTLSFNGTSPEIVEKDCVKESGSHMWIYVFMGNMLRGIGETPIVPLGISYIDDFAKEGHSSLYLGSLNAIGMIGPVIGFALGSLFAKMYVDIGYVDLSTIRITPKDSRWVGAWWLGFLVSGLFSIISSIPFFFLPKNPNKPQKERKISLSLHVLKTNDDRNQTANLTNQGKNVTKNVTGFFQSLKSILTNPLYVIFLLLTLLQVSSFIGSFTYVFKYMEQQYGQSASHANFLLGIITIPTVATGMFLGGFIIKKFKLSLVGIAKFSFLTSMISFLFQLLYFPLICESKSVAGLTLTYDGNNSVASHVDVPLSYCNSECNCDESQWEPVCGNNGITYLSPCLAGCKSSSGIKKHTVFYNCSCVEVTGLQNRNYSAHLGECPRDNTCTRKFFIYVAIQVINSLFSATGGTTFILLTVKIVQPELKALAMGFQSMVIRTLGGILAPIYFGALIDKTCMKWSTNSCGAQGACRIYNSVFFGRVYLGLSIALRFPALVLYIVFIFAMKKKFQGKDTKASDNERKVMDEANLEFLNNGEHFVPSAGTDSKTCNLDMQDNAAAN

SMILES = O=C(NC1CCN(c2ncnc3[nH]cnc23)CC1)c1cccc(NS(=O)(=O)c2ccc(C(F)(F)F)cc2)c1; target or system = Genome polyprotein, NS5 methyltransferase domain (Zika virus, UniProt Q32ZE1); test = NS5 enzyme activity, inhibitor; conditions = 100 µM; endpoint = inhibition; value = -2.45%
SMILES = CN(/N=C/c1ccccc1C(=O)O)c1nc(-c2ccccc2Cl)cs1; target or system = SRM kinase; test = kinase activity, inhibitor; conditions = 1 µM; endpoint = inhibition; value = 7.81% and 9.66%
SMILES = CC(=O)NCCCC[C@@H]1NC(=O)[C@H](Cc2c[nH]c3c(C)cccc23)NC(=O)[C@H]([C@@H](C)O)NC(=O)[C@H](CC(N)=O)NC(=O)[C@@H](NC(C)=O)C(C)(C)SSC(C)(C)[C@@H](C(=O)N[C@@H](Cc2ccc(OCCN)cc2)C(=O)N[C@@H](Cc2ccc3ccccc3c2)C(=O)NC2(C(=O)N[C@@H](CCC(=O)O)C(=O)N[C@@H](CC(N)=O)C(=O)N[C@@H](Cc3cccnc3)C(=O)N(C)CC(N)=O)CCOCC2)NC1=O; target or system = SLCO1B3 (Homo sapiens, UniProt Q9NPD5); test = substrate; test system = HEK293 overexpressing transporter; conditions = 5 µM, 30 min, together with: 25 µM rifampicin; endpoint = uptake rate; value = 0.063 ± 0.0038 pmol/mg/min
SMILES = C[n+]1cn([C@@H]2O[C@H](COP(=O)([O-])CP(=O)(O)O)[C@@H](O)[C@H]2O)c2nc(N)nc(O)c21; target or system = dcp2 with Dcp1; conditions = 200 µM, 0.25 h; endpoint = inhibition; value = 16.2%
SMILES = CN[C@@H]1[C@H](O)[C@H](NC)[C@H]2O[C@]3(O)[C@H](O[C@@H]2[C@H]1O)O[C@H](C)C[C@H]3NC(=O)Cc1ccc(Cl)cn1; target or system = NR3C1 (Homo sapiens, UniProt P04150); test = ligand displacement, radioligand; conditions = 10 µM; endpoint = inhibition; value = 10%
SMILES = C=CC(=O)Nc1cc(-c2nn(C3CCC(N4CCN(C(C)=O)CC4)CC3)c3ncnc(N)c23)ccc1Oc1ccccc1 (stereo not drawn); target or system = NEK4 (Homo sapiens, UniProt P51957); test = inhibitor, KiNativ profiling; test system = biochemical; conditions = 2 µM; endpoint = inhibition; value = 16.6%
SMILES = Cc1cc(C)cc(-n2cc(CCS(=O)(=O)F)nn2)c1; target or system = ache; test = Ellman; conditions = 20 µM; endpoint = inhibition; value = 35.6 ± 2.9%
SMILES = C[n+]1cn([C@@H]2O[C@H](COP(=O)(O)CP(=O)([O-])OP(=O)(O)O)[C@@H](O)[C@H]2O)c2nc(N)nc(O)c21; target or system = dcp2 with Dcp1; conditions = 200 µM, 0.25 h; endpoint = inhibition; value = 8.3%
SMILES = COc1ccccc1-c1n[nH]c2nc(N[C@H]3CC[C@H](NS(=O)(=O)CC(C)C)CC3)ncc12; test = bead binding, competition bead pull-down, item: LMJF.31.1130; test system = Leishmania donovani extract; conditions = 10 µM; how to read = baseline: vehicle; endpoint = relative abundance; value = 1.11
SMILES = N=C(N)NCCC[C@@H]1NC(=O)[C@H](CCCCNC(=O)CCC(NC(=S)Nc2ccc(CC3CN(CC(=O)O)CCN(CC(=O)O)CCN(CC(=O)O)CCN3CC(=O)O)cc2)C(=O)NCCCC[C@@H]2NC(=O)[C@@H](Cc3ccc(O)cc3)NC(=O)[C@H](CC(=O)O)NC(=O)CNC(=O)[C@H](CCCNC(=N)N)NC2=O)NC(=O)[C@@H](Cc2ccc(O)cc2)NC(=O)[C@H](CC(=O)O)NC(=O)CNC1=O (stereo partly drawn) [scandium-44 labelled]; test = PET imaging; test system = female athymic nude mouse, muscle; conditions = intravenous, 2 h, U-87 MG xenograft, together with: cRGD 50 mg/kg blocking; endpoint = tissue uptake; value = 0.04 ± 0.02 %ID/g
SMILES = O=C1NC(=O)c2c1c1cc(F)c[n+]3c1c1c2c2cc(O)ccc2[n]1[Ru-4]312([N]=C=S)[S+]3CC[S+]1CC[S+]2CC3 (stereo not drawn); target or system = WNK2 (Homo sapiens, UniProt Q9Y3S1); test = enzyme activity; conditions = 100 nM, human enzyme, together with: 10 µM ATP; how to read = baseline: untreated; endpoint = remaining activity; value = 76%
SMILES = COc1ccccc1-c1n[nH]c2nc(NC3CCN(C(=O)Cc4ccc(F)cc4F)CC3)ncc12; test = bead binding, competition bead pull-down, item: LINJ.33.0600; test system = Leishmania donovani extract; conditions = 10 µM; how to read = baseline: vehicle; endpoint = relative abundance; value = 0.95
SMILES = COc1ccc(F)cc1S(=O)(=O)Nc1cnc2c(c1)C(=O)NCCO2; target or system = kainate glutamate receptor; test = radioligand binding; conditions = 10 µM; endpoint = inhibition; value = 9%
SMILES = Cc1nc2cccc(OCC(C)(C)C(=O)NC(C)C)c2c(N)c1C(=O)[O-].[Na+]; target or system = Salmonella typhimurium; test system = TA100; conditions = 0.32 mg per plate, without S9, preincubation; endpoint = revertant colonies per plate; value = 133 ± 9
SMILES = O=C(O)c1ccccc1/C=N/Nc1nc(-c2ccccc2Cl)cs1; target or system = NPM1-ALK fusion kinase; test = kinase activity, inhibitor; conditions = 1 µM; endpoint = inhibition; value = 20.9% and 20.7%
SMILES = C[n+]1cn([C@@H]2O[C@H](COP(=O)([O-])OP(=O)(O)O)[C@@H](O)[C@H]2O)c2nc(N)nc(O)c21; target or system = dcp2 with Dcp1; conditions = 200 µM, 0.25 h; endpoint = inhibition; value = 8.5 ± 4%
SMILES = CCOC(=O)[C@](CC)(CCCSCCOCCOCCNC(=O)c1ccc(-c2c3ccc(=N)c(S(=O)(=O)O)c-3oc3c(S(=O)(=O)O)c(N)ccc23)c(C(=O)O)c1)NC(=O)c1ccc(C2CC2)c(Cc2ccc(F)cc2)n1; target or system = androgen receptor (human); test = specific binding, agonist radioligand binding; conditions = 10 µM; endpoint = inhibition; value = 1%
SMILES = C/C(=N\OCCCN1CCCCC1)c1ccc(C(F)(F)F)cc1; target or system = Glutamate NMDA receptor; GRIN1/GRIN2B (GRIN1/GRIN2B, Homo sapiens, UniProt Q05586+Q13224); test = ion current, antagonist, manual patch clamp; conditions = 10 µM; endpoint = inhibition; value = 19.1%
SMILES = CS(C)(=O)=Nc1ccc(-c2ccc(-c3nc4cc(O[C@@H]5CO[C@H]6[C@@H]5OC[C@H]6O)[nH]c4cc3F)cc2)cc1; target or system = SGK3 (Homo sapiens, UniProt Q96BR1); test = enzyme activity, inhibitor; conditions = 10 µM; endpoint = inhibition; value = -9%
SMILES = C1CSCN1; target or system = ache; test = enzyme activity, inhibitor, Ellman; conditions = 20 µM; endpoint = inhibition; value = 37.7%
SMILES = CC(=O)NC[C@@H]1[C@@H](O)C[C@H]2[C@H](O)C[C@@H](CO)N12; target or system = human placental β-N-acetylglucosaminidase; conditions = 0.342 µM, run 2, together with: p-nitrophenyl GlcNAc; endpoint = inhibition; value = 80.7%
SMILES = CCCCCCCCCCCCCCCCCC(=O)NC[C@H]1CC[C@H](C(=O)N[C@@H](CCC(=O)NCCCOCCOCCOCCCNC(=O)COCC(=O)N[C@@H](Cc2ccc(O)cc2)C(=O)NC(C)(Cc2ccccc2)C(=O)N[C@@H](CC(C)C)C(=O)N[C@@H](CCCC)C(=O)N[C@@H](CCCNC(=N)N)C(=O)N2CCC[C@H]2C(=O)N[C@@H](CCCNC(=N)NC)C(=O)N[C@@H](CC(N)=O)C(N)=O)C(=O)O)CC1 (stereo partly drawn); target or system = FSHR (Homo sapiens, UniProt P23945); test = antagonist, DiscoverX GPCR panel; conditions = 1 µM; endpoint = inhibition; value = 57%
SMILES = Cc1ccc(OC[C@H]2CCCN2C)cc1C(=O)N[C@H](C)c1cc(-c2cnn(C)c2)nc2ccccc12; target or system = Vero E6; conditions = 125 µM; endpoint = viability; value = 4.42% and 1.26% and 0.158%
SMILES = O=C(Nc1cccs1)c1cccnc1; target or system = NMNAT1 human; test = enzyme activity, coupled alcohol dehydrogenase counter-screen; conditions = concentration not given, together with: 50 µM NMN; endpoint = inhibition; value = no inhibition
SMILES = CC[C@H](C)[C@H](NC(=O)[C@H](CO)NC(=O)[C@H](Cc1ccc(O)cc1)NC(=O)[C@H](Cc1ccc(O)cc1)NC(=O)[C@H](CC(N)=O)NC(=O)CNC(=O)[C@H](CO)NC(=O)[C@H](Cc1ccc(O)cc1)NC(=O)[C@H](CO)NC(=O)[C@H](CO)NC(=O)[C@H](CC(N)=O)NC(=O)COCCOCCNC(=O)CN1CCN(CC(=O)O)CCN(CC(=O)O)CCN(CC(=O)O)CC1)C(=O)N[C@@H](CC(C)C)C(N)=O [copper-64 labelled]; test = dynamic PET; test system = mouse, tamoxifen-induced PDAC, blood; conditions = intravenous, 0.1 µg/mouse, 7.5 min; endpoint = tumour uptake; value = 10.2 %ID/mL
SMILES = Cc1sc2c(c1C)C(c1ccc(Cl)cc1)=NC(CC(=O)OC(C)(C)C)c1nnc(C)n1-2 (stereo not drawn); target or system = CCR1 (Homo sapiens, UniProt P32246); test = agonist radioligand binding; conditions = 1 µM; endpoint = specific binding; value = 104%
SMILES = NCCc1ccccn1; target or system = ache; test = enzyme activity, inhibitor, Ellman; conditions = 20 µM; endpoint = inhibition; value = 31.1%
SMILES = CN1CCN(c2ccc(Nc3cc4[nH]c(-c5cccc(F)c5)cc4cn3)cc2)CC1; target or system = ache; test = enzyme activity, inhibitor, Ellman; conditions = 5 µM; endpoint = inhibition; value = 62.3%
SMILES = CN(C)[C@H]1C[C@@]23CC[C@@]4(O2)C(=CC[C@]2(C)[C@@H](c5ccc6ccncc6c5)CC[C@H]24)C=C3[C@@H](O)[C@@H]1O; target or system = CDK4 (Homo sapiens, UniProt P11802); test = ATP probe labelling, inhibitor, KiNativ profiling; conditions = 0.1 µM; endpoint = inhibition; value = -0.5%
SMILES = O=C1NC2(CC2)COc2ncc(F)cc2[C@H]2COCCN2c2ccn3ncc1c3n2; test system = Sprague-Dawley rat, male, serum; conditions = oral, 10 mg/kg/day, end of treatment, 4-week subacute toxicity; endpoint = serum triglycerides; value = 0.52 ± 0.23 mmol/L
SMILES = OB(O)c1ccccc1-c1ccc(-c2ccccc2)cc1; target or system = Beta-lactamase (ampC, Escherichia coli K-12, UniProt P00811); test = enzyme activity, inhibitor, CENTA hydrolysis absorbance; conditions = 10 µM; endpoint = inhibition; value = < 10%
SMILES = CC(C)(C)C(=O)OCOP(=O)(OCOC(=O)C(C)(C)C)C1CCCN(O)C1=O (stereo not drawn); target or system = SW-620; endpoint = log LC50; value = > -4 log M
SMILES = N[C@H](C(=O)N1CCCC1)C1CCN(c2nccc3c(-c4ncc(Cl)cc4Cl)cccc23)CC1; target or system = muscle nicotinic acetylcholine receptor; test = binding, radioligand binding; conditions = 10 µM; endpoint = inhibition; value = -13%
SMILES = C[C@H](NCc1ccc(-c2ccc(C(F)(F)F)cc2)cc1)C(N)=O; target or system = MKNK1 (Homo sapiens, UniProt Q9BUB5); test = cell-free assay, competition with immobilised ligand; conditions = 1 µM; endpoint = inhibition; value = 5%
SMILES = CCc1nnc(-c2c(OC)cc(-c3cnc4cc(-c5cnn(C)c5)ccn34)cc2OC)o1; target or system = CHRM1 (Homo sapiens, UniProt P11229); test = antagonist radioligand, radioligand binding; conditions = 10 µM, SafetyScreen44 M1; endpoint = inhibition; value = 4%
SMILES = Cc1cc(C(=O)Nc2nc3cccc(C)c3n2[C@H]2CCCCN(C(=O)/C=C/CN(C)C)C2)ccn1; target or system = Trypanosoma brucei brucei; test system = 2T1 CLK1 overexpressing; conditions = 0.0391 µM, compound pretreated; how to read = baseline: maximum; endpoint = survival; value = 188% and 195% and 167% and 204%
SMILES = O=C(O)CCn1c(=O)oc2cc(Cl)c(Cl)cc21; target or system = IDO1 (Homo sapiens, UniProt P14902); conditions = 100 µM; endpoint = inhibition; value = 6.7%
SMILES = O=C(CN1CN(c2ccccc2)C2(CCN(C(=O)c3cnc4[nH]ncc4c3)CC2)C1=O)NCC(F)(F)F; target or system = ULK3 (Homo sapiens, UniProt Q6PHR2); test = inhibitor; conditions = concentration not given; endpoint = inhibition; value = < 50%
SMILES = CC(C)[C@H]1NC(=O)C[C@H]2/C=C/CCSSC[C@@H](NC1=O)C(=O)N[C@H](Cc1cccc3ccccc13)C(=O)NCC(=O)O2; target or system = DDR2 (Homo sapiens, UniProt Q16832); test = enzyme activity, inhibitor; conditions = 10 µM; endpoint = inhibition; value = 5.8%
